Published values gathered from unrelated publications.
Lines come from different studies, so protocols differ. Values joined by “and” are separate records of one study, mostly repeats; a detail may differ. Numbers after ± are the reported error.

Compound | cell line | test | system | setting | scale | viability
O=C(NOCC(O)CO)c1cc(Br)c(F)c(F)c1Nc1ccc(I)cc1F (stereo not shown) | A-172 | WST-8 |  | 1 µM, TDO inhibitor study |  | 104%
O=C(C[C@@H](C(F)F)n1ccc(F)n1)N1CCC(O)(Cn2cnc3c(cnn3-c3ccc(F)cc3)c2=O)CC1 | LNCaP | CCK-8 |  | 1.524 nM, 5 days |  | 89.1% and 84%
COc1ccc(Cn2cc(CO[C@@H]3O[C@H]4[C@H](OC[C@H]4O)[C@H]3O)nn2)cc1 | Huh-7 | cytotoxicity, CellTiter-Glo |  | up to 30 µM, 72 h |  | not toxic
CC(=O)Nc1cccc(-n2c(=O)n(C3CC3)c(=O)c3c(Nc4ccc(I)cc4F)n(C)c(=O)c(C)c32)c1 | COLO 205 | resazurin |  | concentration not given, 72 h, unit not given | baseline: DMSO | 0.975 and 0.493 and 0.18 and 0.277 and 0.222 and 0.218
COc1ccc(-c2ccc(CN3CCCC3c3ccc(N(C)C)cc3)o2)c([N+](=O)[O-])c1 (stereo not shown) | HEK-Blue IL-33 | MTS |  | up to 333 µM, 20 h |  | no effect
CC(=O)Nc1cccc(-n2c(=O)n(C3CC3)c(=O)c3c(Nc4ccc(I)cc4F)n(C)c(=O)c(C)c32)c1 | A-172 | WST-8 |  | 1 µM, 25 h |  | 94.5%
O=[N+]([O-])c1ccccc1-c1ccc(CN2CCCC2c2ccc(N3CCCC3)cc2)o1 (stereo not shown) | HEK-Blue IL-33 | MTS |  | up to 333 µM, 20 h |  | no effect
C=CC(=O)N1CCCN(C(=O)c2cc(Sc3cnc(NC(=O)C4CC4)s3)c(C)cc2OC)C[C@H]1C | human primary T cells |  |  | 10 µM, six days, added: TCR stimulation |  | no effect
O=c1[nH]cc(F)c(=O)[nH]1 | Huh-7 | CCK-8 |  | 50 µM, 72 (unit not given) | baseline: untreated control | 44.7 ± 0.74%
CC(C)n1ncc2c(C(=O)NCC3(C)CNC3)cc(C3CC3)nc21 | Vero C1008 | neutral red uptake | DMEM with 2% FBS | 0.11 µM | baseline: positive control | 99.8%

A few entries again:
Compound | cell line | test | system | setting | scale | viability
CC(=O)Nc1cccc(-n2c(=O)n(C3CC3)c(=O)c3c(Nc4ccc(I)cc4F)n(C)c(=O)c(C)c32)c1 | COLO 205 | resazurin |  | concentration not given, 72 h, unit not given | baseline: DMSO | 0.975 and 0.493 and 0.18 and 0.277 and 0.222 and 0.218
